Results gathered from unrelated publications.
± gives the spread as reported.
Chain of UniProt P08684 (whole entry, looked up): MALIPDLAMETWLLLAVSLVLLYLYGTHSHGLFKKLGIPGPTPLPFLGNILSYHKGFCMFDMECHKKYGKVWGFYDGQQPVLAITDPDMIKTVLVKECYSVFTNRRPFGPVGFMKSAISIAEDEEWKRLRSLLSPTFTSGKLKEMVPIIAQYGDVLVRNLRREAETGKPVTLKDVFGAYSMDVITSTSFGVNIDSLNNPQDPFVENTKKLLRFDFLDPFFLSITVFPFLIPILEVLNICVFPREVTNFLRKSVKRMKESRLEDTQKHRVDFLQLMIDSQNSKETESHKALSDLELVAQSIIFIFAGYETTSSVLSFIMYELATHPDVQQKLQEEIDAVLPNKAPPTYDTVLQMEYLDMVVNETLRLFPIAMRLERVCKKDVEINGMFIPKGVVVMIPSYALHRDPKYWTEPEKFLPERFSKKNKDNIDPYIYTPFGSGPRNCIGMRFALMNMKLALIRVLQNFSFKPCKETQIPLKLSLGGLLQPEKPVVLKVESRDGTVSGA

With C=CC(=O)Nc1cc(Nc2ncnc(Nc3ccccc3C(C)(C)O)n2)c(OC)cc1N(C)CCN(C)C the CLint was 34 (µL/min)/(10⁶ cells) (human hepatocytes).
For CNc1c(C)n(C)n(-c2ccccc2)c1=O, mRNA level read “increased” (HepaRG PXR knockout; measured: CYP2C19; 300 µM, 72 h; baseline: untreated).
O=C(OCc1cccc(O)c1O)c1ccc(O)c(CO)c1: cytotoxicity “not toxic” (HL-60; 20 µM, 48 h).
C=C1CC[C@@H]2Cc3c(O)c(C(=O)/C=C/c4ccccc4)c(OC)c(C)c3O[C@@]2(C)CC[C@@H]2[C@@H]1CC2(C)C gave a CC50 of > 50 µM (HEp-2; cell growth or viability).
O=C(CCl)Sc1nnc(-c2n[nH]c(=O)c3ccccc23)o1 has a mRNA level of 0.98 ± 0.12 fold (HepG2; qRT-PCR, measured: caspase-3; IC50, 8 h; baseline: untreated).
With CC/C(=C(\c1ccc(O)cc1)c1ccc(OCCN(C)CCOCCOCCOCCOCCN(C)CCOc2ccc(/C(=C(/CC)c3ccccc3)c3ccc(O)cc3)cc2)cc1)c1ccccc1 the cell density was 59% (U2OS transfected with ERβ; 10 µM, cytotoxicity).
The CC50 of Cc1cc(C#N)cc(C)c1Oc1nc(NC2CCN(Cc3ccc(S(N)(=O)=O)cc3)CC2)nc2ccccc12 is reported as > 0.23 µM (TZM-bl; cell growth or viability, XTT; 96 h).
COc1ccc2nc3ccc(OC)cc3c(SCCCN)c2c1 has an EC50 of > 30 µM (AHH-1; cytotoxicity; 36 h).
[64Cu+2].c1ccc(CNCc2ccc(CN3CCCN4CCNCCCN(CC4)CC3)cc2)nc1 has a tissue uptake of 6.16 ± 0.34 %ID/g (CXCR4; NOD/SCID mouse, U87 and U87-stb-CXCR4 xenografts, lungs; iv, 90 min, no blocking dose, ex vivo).
The IC50 of [Cl-].[Cl-].[Mn+2].c1ccc(CN2CCCNCCN(Cc3ccccc3)CCCNCC2)cc1 is reported as > 19 µM (THP-1; cell growth or viability).
The CC50 of Cc1cc(C#N)cc(C)c1Oc1nc(NC2CCN(Cc3ccc(S(C)(=O)=O)cc3)CC2)nc2ncccc12 is reported as 40 µM (TZM-bl; cell growth or viability, XTT).
CC(=O)OC[C@H]1O[C@@H](Sc2sc(C(=O)c3ccc(Cl)cc3)c(N)c2-c2nc3ccccc3s2)[C@H](OC(C)=O)[C@@H](OC(C)=O)[C@H]1OC(C)=O — result for “maximum non-toxic concentration”: 90 µg/mL (HEp-2; cytotoxicity; 72 h).
The cell density of CCC(=C(c1ccc(O)cc1)c1ccc(OCCN(C)CCOCCOCCOCCOCCOCCOCCOCCOCCOCCOCCOCCN(C)CCOc2ccc(C(=C(CC)c3ccccc3)c3ccc(O)cc3)cc2)cc1)c1ccccc1 (mixture of isomers) is reported as 6% (U2OS expressing ERβ; 10 µM, Z-Z:Z-E:E-E 1:2:1 isomer mix).
Under “in vitro biliary clearance”, [99Tc+].[C-]#[N+]CC(C)(C)OC.[C-]#[N+]CC(C)(C)OC.[C-]#[N+]CC(C)(C)OC.[C-]#[N+]CC(C)(C)OC.[C-]#[N+]CC(C)(C)OC.[C-]#[N+]CC(C)(C)OC is recorded as 8.08 mL/min/kg (rat sandwich-cultured hepatocytes, non-target siRNA; 10 min, culture day 4).
Cc1nn(-c2ccc(S(=O)(=O)N[C@H](CO)CC(C)C)cc2)c2nn3nnnc3nc12 has a tail DNA of 27.8 ± 3.12% (human peripheral blood lymphocytes; DNA damage, alkaline comet; 2 µM, 24 h).
CCCCn1cc(C(=O)O)c(=O)c2cc(F)c(N)c([N+](=O)[O-])c21 has an IC50 of 193 µM (SW-620; cell growth or viability, SRB).
With COC1CCC2(C)C3=C(CCC2C1(C)C)C1(C)CCC(C(C)CCC=C(C)C)C1(C)CC3 (stereo not drawn) the inhibition was 4.3% (HCT-15; cell growth or viability, SRB; 50 µM).
O=c1c2cc([N+](=O)[O-])ccc2n(CCO)n1Cc1ccccc1 has a selectivity index of 2 (Leishmania amazonensis; mouse peritoneal macrophages; intracellular amastigotes; baseline: CC50 macrophages over IC50 amastigotes).
The EC50 of O=c1c2sccc2n(CC2COc3ccccc3O2)c(=O)n1O (stereo not drawn) is reported as 11 µM (SW-620; colony formation; 10 to 14 days).
For [Cl-].[Cl-].[Mn+2].c1ccc(CN2CCNCCN(Cc3ccccc3)CCNCC2)cc1, the IC50 was > 20 µM (THP-1; cell growth or viability).
The IC50 of C=CC(=C)CC[C@]1(C)[C@H](C)CC[C@@]23C(=C[C@H](OC(=O)C(C)C)C[C@@H]12)[C@@H](OC(C)=O)O[C@H]3OC(C)=O is reported as 26.6 µM (KB-VIN (P-gp-overexpressing); cell growth, SRB).
With C=CC(=O)N1CCCC(n2c(=O)c3ncccc3n(Cc3ccc(Oc4ccccc4)cc3)c2=O)C1 (stereo not drawn) the intracellular concentration was 20 to 40 nM (HCT-116 and Rec1; 0.2 µM, 6 h).
CC(=O)N[C@H](C(=O)N[C@H](C(=O)N[C@@H](CCCNC(=N)N)C(=O)N1Cc2ccccc2C[C@H]1C(=O)N[C@@H](Cc1ccccc1)C(N)=O)C1CCCCC1)C(C)C has a cytokine level of 16 ± 8.1 pg/mL (human PBMC; Bio-Plex multiplex, measured: IL-9; 250 µg/mL, 24 h).
For OC[C@H]1O[C@@H](OCCCCCCCCCCC(F)(F)C(F)(F)C(F)(F)C(F)(F)C(F)(F)C(F)(F)F)[C@H](O)[C@@H](O)[C@H]1O, the EC50 was > 250 µM (B16-F10; cytotoxicity, MTT; 24 h).
Under “action potential duration”, CCOc1c(C(C)(C)O)sc2cnc(Nc3ccc(N4CCC(N5CC6(COC6)C5)CC4)cc3OC)nc12 is recorded as “no effect” (mouse ventricular cardiomyocytes; patch clamp, measured: APD50; 1, 3 and 10 µM).
For Cc1ccc(C(=O)c2sc(S)c(-c3nc4ccccc4s3)c2N)cc1, “maximum non-toxic concentration” read 90 µg/mL (HEp-2; cytotoxicity; 72 h).
Under “maximum non-toxic concentration”, CCOC(=O)c1cc(-c2nc3ccccc3s2)c(=O)n(NS(=O)(=O)c2ccc(Cl)cc2)c1N is recorded as 130 µg/mL (HEp-2; trypan blue; 72 h).
COc1cc(O)cc(CCc2cc(Cl)ccc2O)c1: “sensitization to 5-fluorouracil” 3 fold (LS174T 5-FU-resistant; SRB; 5 µM, 24 h pretreatment, with: 5-fluorouracil 72 h).
COc1cc2nc(NC3CCN(Cc4ccc(C(N)=O)cc4)CC3)nc(Oc3c(C)cc(C#N)cc3C)c2cc1OC has a CC50 of 12.5 µM (TZM-bl; cell growth or viability, XTT).
O=c1[nH]cc(C(c2ccc(Cl)cc2)c2c[nH]c(=O)[nH]c2=O)c(=O)[nH]1: cytotoxicity “not toxic” (Ba/F3; 1 µg/mL).
CC(=O)O[C@@H]1[C@@H](OC(C)=O)[C@H](Sc2sc(C(=O)c3ccc(Br)cc3)c(N)c2-c2nc3ccccc3s2)OC[C@H]1OC(C)=O — result for “maximum non-toxic concentration”: 100 µg/mL (HEp-2; cytotoxicity; 72 h).
For CNCc1ccc2c(c1)N(C(=O)OCc1ccccc1)[C@H](CNC(=N)N)[C@H]2NC(=O)C(=O)Nc1ccc(Cl)c(F)c1, the cytotoxic concentration was ≥ 50 µM (TZM-bl; cell proliferation; 72 h).
C=C(c1ccc(C(=O)O)c(F)c1)c1cc2c(cc1C)C(C)(C)C=CC2(C)C — result for “lowest effective concentration”: 33.9 µg/mL (TK6; cytotoxicity, GreenScreen; with: rat liver S9).
For CC/C(=C(\c1ccc(O)cc1)c1ccc(OCCN(C)CCOCCOCCOCCOCCOCCN(C)CCOc2ccc(/C(=C(/CC)c3ccccc3)c3ccc(O)cc3)cc2)cc1)c1ccccc1, the cell density was 15% (U2OS transfected with ERβ; 10 µM, cytotoxicity).
COc1ccccc1NC(=O)OC1C(C)C(OC)C=COC2(C)Oc3c(C)c(O)c4c(c3C2=O)C2=NC3(CCN(CC(C)C)CC3)NC2=C(NC(=O)C(C)=CC=CC(C)C(O)C(C)C(O)C1C)C4=O (stereo not drawn) has an intracellular/extracellular ratio of 140 (THP-1 derived macrophages; baseline: intracellular over extracellular).
Nc1ncnc2c1ncn2[C@@H]1O[C@H](CO)[C@@H](O)[C@H]1F has a CC50 of > 250 µM (SkMC; sulforhodamine B; 11 days, galactose medium).
With CC#N.[Cl][Mn-2]([Cl])([Cl])[Cl].[Mn+2].c1ccc(CN2CCCN3CCCN(CCCN(Cc4ccccc4)CC3)CC2)cc1 the IC50 was 3.49 µM (THP-1; cell growth or viability).
Cc1ccc(NC(=O)N2CCCN3CCC(c4ccc(C#Cc5cccnc5)cc4)C3C2)cc1 (stereo not drawn) has a Papp B→A of 2.49 ×10⁻⁶ cm/s (MDCK-MDR1; Caco-2).
With COc1ccc2cc(NC(=O)c3cc(-c4cccnc4)nc4ccccc34)ccc2c1 the kcat/Km was 30800 M⁻¹ s⁻¹ (Cytochrome P450 3A4 (CYP3A4, Homo sapiens, UniProt P08684); substrate, measured: metabolite M2; baculosomes).
With COC(=O)c1ccc(CN2CCC(Nc3nc(Oc4c(C)cc(C#N)cc4C)c4ccccc4n3)CC2)cc1 the CC50 was > 0.24 µM (TZM-bl; cell growth or viability, XTT).
C=Cc1c(C)c2cc3nc(cc4[nH]c(cc5nc(cc1[nH]2)C(C)=C5CCC(=O)NC(CC(=O)[O-])C(=O)[O-])c(CCC(=O)NC(CC(=O)[O-])C(=O)[O-])c4C)C(C)(O)C3=CC=NO.[Na+].[Na+].[Na+].[Na+] (stereo not drawn) has a cellular content of 20 ng/mg protein (T.Tn cells; 50 µg/mL, 4°C).
[64Cu+2].c1cnc(CNCc2ccc(CN3CCCN4CCNCCCN(CC4)CC3)cc2)nc1 gave a tissue uptake of 8.45 ± 5.25 %ID/g (CXCR4 (human); NOD/SCID mice, U87 xenografts, small intestine; 30 min post-injection).
Under “urine WBC positive incidence”, Cn1c(=O)oc2ccc(-c3ccc(CC(C#N)NC(=O)C4CNCCCO4)c(F)c3)cc21 (stereo not drawn) is recorded as 11.1% (human; oral, 40 mg once daily, TEAE, multiple ascending dose).
With O=c1ccn([C@@H]2O[C@H](CO)[C@@H](O)[C@H]2F)c(=O)[nH]1 the CC50 was > 250 µM (SNB-78; sulforhodamine B; 11 days, galactose medium).
The viability of CC(C)=C1CC[C@]2(COC(=O)c3ccccc3)[C@@H](OC(=O)c3ccccc3)/C=C(\C)CC[C@@H]3O[C@@]3(C)C[C@@H](OC(=O)c3cccnc3)[C@@H]12 is reported as 87.7% (HepG2; cell growth or viability, CCK-8; 50 µM, 24 h).
The IC50 of CC(=O)[O-].F[P-](F)(F)(F)(F)F.[Ni+2].c1ccc(CN2CCN3CCN(CC2)CCN(Cc2ccccc2)CC3)cc1 is reported as > 20 µM (THP-1; cell growth or viability).
Under cytotoxicity, COc1ccc(Cl)cc1Nc1nc2c(ccc3nc(NC(=O)C(C)(C)C)sc32)s1 is recorded as “toxic” (FRT expressing deltaF508-CFTR; concentration not given).
For Cc1cc(C#N)cc(C)c1Oc1nc(NC2CCN(Cc3cccc(F)c3)CC2)nc2ccccc12, the CC50 was > 0.26 µM (TZM-bl; cell growth or viability, XTT).
Nc1ccn([C@@H]2O[C@H](CO)[C@@H](O)[C@H]2F)c(=O)n1 gave a CC50 ratio of 2 to 10 fold (SNB-78; cytotoxicity, sulforhodamine B; 11 days; baseline: glucose medium over galactose medium).
For CC(=O)O[C@@H]1[C@@H](OC(C)=O)[C@H](Sc2sc(C(=O)c3ccc(Cl)cc3)c(N)c2-c2nc3ccccc3s2)OC[C@H]1OC(C)=O, “maximum non-toxic concentration” read 80 µg/mL (HEp-2; cytotoxicity; 72 h).
CC(=O)O[C@H]1CC[C@]2(C)C3=C(CC[C@H]2C1(C)C)[C@@]1(C)CC[C@@H]([C@H](C)CCC=C(C)C)[C@]1(C)CC3 has an inhibition of 39.4% (HCT-15; cell growth or viability, SRB; 50 µM).

Excerpt of the above:
CCCCn1cc(C(=O)O)c(=O)c2cc(F)c(N)c([N+](=O)[O-])c21 has an IC50 of 193 µM (SW-620; cell growth or viability, SRB).
O=C(CCl)Sc1nnc(-c2n[nH]c(=O)c3ccccc23)o1 has a mRNA level of 0.98 ± 0.12 fold (HepG2; qRT-PCR, measured: caspase-3; IC50, 8 h; baseline: untreated).
The CC50 of Cc1cc(C#N)cc(C)c1Oc1nc(NC2CCN(Cc3ccc(S(N)(=O)=O)cc3)CC2)nc2ccccc12 is reported as > 0.23 µM (TZM-bl; cell growth or viability, XTT; 96 h).
